Measured values gathered from unrelated publications.
Lines come from different studies, so protocols differ. ± gives the spread as reported.

The Kd of `C#CC[C@H](NC(=O)CNC(=O)[C@H](CO)NC(=O)[C@H](CCCCN)NC(=O)[C@H](C)N(C)C(=O)[C@H](C)NC(=O)[C@@H](NC(=O)[C@@H](NC(=O)[C@H](CCCNC(=N)N)NC(=O)[C@H](Cc1c[nH]cn1)NC(=O)[C@@H]1CCCN1C(=O)[C@H](Cc1ccccc1)NC(=O)[C@@H](N)CCSC)C(C)C)[C@@H](C)O)C(=O)O` is reported as 0.691 ± 0.252 µM (Microtubule-associated protein 1 light chain 3 alpha (Homo sapiens, UniProt Q9H492); fluorescence polarization).
The Kd of `CC[C@H](C)[C@@H]1NC(=O)[C@H](Cc2ccccc2)NC(=O)[C@H](Cc2ccc(O)cc2)NC(=O)[C@H](Cc2c[nH]c3ccccc23)NC(=O)[C@H](Cc2c[nH]c3ccccc23)NC(=O)[C@H](C)NC(=O)[C@H](Cc2ccc(O)cc2)NC(=O)[C@H](CC(C)C)NC(=O)[C@H](Cc2c[nH]cn2)NC(=O)[C@H](CC(=O)O)NC(=O)[C@H](Cc2ccc(O)cc2)NC(=O)[C@H](C(C)C)NC(=O)[C@H](CC(C)C)NC(=O)[C@H](Cc2ccc(O)cc2)NC(=O)CSC[C@@H](C(=O)NCC(N)=O)NC(=O)[C@H](C)NC1=O` is reported as 0.11 µM (Protein Wnt-3a, with afamin (Mus musculus, UniProt P27467); binding, SPR single cycle kinetics; immobilised mWnt3a–human afamin complex; 25 °C).
With `C=Cc1cc(OC)c2c(c1)c(=O)oc1c2cc(OC)c2c(O)ccc([C@@H]3O[C@H](C)[C@H](O)[C@@](C)(O)[C@H]3O)c21` the Kd was 0.00461 µM (Bifunctional protein GlmU (Staphylococcus aureus, UniProt Q5HIH6); binding, MST).
`CC[C@H]1OC(=O)[C@H](C)[C@@H](OC(=O)CN(C)C)[C@@H](C)C[C@@H](C)C(=O)/C=C/[C@H]1C` has a Kd of 11 ± 0.56 µM (pikC (Streptomyces venezuelae, UniProt O87605, D50N/H238A); substrate, spectroscopic equilibrium binding; D50N/H238A double mutant).
`CSCC[C@H](NC(=O)[C@H](CC(N)=O)NC(=O)[C@H](CCC(=O)O)NC(=O)[C@@H](NC(=O)[C@H](CCCNC(=N)N)NC(=O)[C@H](CO)NC(=O)[C@H](Cc1ccc(O)cc1)NC(=O)[C@@H](N)Cc1c[nH]cn1)[C@@H](C)O)C(=O)NCC(=O)N[C@H](C(=O)N[C@@H](CO)C(=O)N[C@@H](CC(N)=O)C(=O)N[C@@H](C)C(=O)N[C@@H](CS)C(N)=O)[C@@H](C)O` gave a Kd of 0.00148 ± 0.0001 µM (Leishmania secreted acid phosphatase; surface plasmon resonance; pH 6.5, 25 °C).
The Kd of `CC1=CC(Oc2c(F)cc3c(C)cc(=O)oc3c2F)OC1=O` (racemic) is reported as 74.1 µM (RMS3 (Lathyrus oleraceus, UniProt A0A109QYD3); binding, fluorescence).
`CC(C)C[C@H](NC(=O)[C@@H]1CCCN1C(=O)CCOCCOCCOCCOCCOCCOCCOCCOCCNC(=S)Nc1ccc2c(c1)C(=O)OC21c2ccc(O)cc2Oc2cc(O)ccc21)C(=O)N[C@@H](Cc1cncn1CCCCCCCCc1ccccc1)C(=O)N[C@@H](CO)C(=O)N[C@H](C(N)=O)[C@@H](C)CP(=O)(O)O` gave a Kd of 0.46 ± 0.0992 µM (Serine/threonine-protein kinase PLK3, polo-box domain (PLK3, Homo sapiens, UniProt Q9H4B4)).
The Kd of `CC[C@H](C)[C@H](NC(=O)[C@@H]1CSCc2cccc(c2)CSC[C@H](NC(=O)[C@@H](NC(=O)[C@H](Cc2ccc(O)cc2)NC(=O)[C@H](CO)NC(=O)[C@H](Cc2ccccc2)NC(=O)[C@H](CCSC)NC(C)=O)C(C)C)C(=O)N[C@@H]([C@@H](C)O)C(=O)N[C@@H](CC(C)C)C(=O)N[C@@H](CCCCN)C(=O)N[C@@H](CO)C(=O)N1)C(=O)N[C@@H](C)C(=O)N[C@@H](CCSC)C(=O)N[C@@H](Cc1c[nH]cn1)C(=O)NCC(=O)N[C@@H](CO)C(=O)NCC(=O)N[C@@H](CO)C(=O)NCC(=O)N[C@@H](CO)C(=O)N[C@@H](CC(=O)O)C(=O)N[C@@H](Cc1ccc(O)cc1)C(=O)N[C@@H](CCCCN)C(=O)N[C@@H](CC(=O)O)C(=O)N[C@@H](CC(=O)O)C(=O)N[C@@H](CC(=O)O)C(=O)N[C@@H](CC(=O)O)C(=O)N[C@@H](CCCCN)C(N)=O` is reported as 0.0134 µM (FGFR3 (Homo sapiens, UniProt P22607); binding, BLI).
`Oc1ccc(O)c2ccccc12` has a Kd of less than 7 µM (Serine/threonine-protein kinase PAK 1, PBD (PAK1, Homo sapiens, UniProt Q13153); SPR; 25 °C).
For `CC[C@H](C)[C@H](NC(=O)[C@@H](NC(=O)[C@@H]1CCCN1C(=O)[C@@H](NC(=O)[C@@H]1CCCN1C(=O)[C@H](CCCCN)NC(=O)[C@H](CCCCN)NC(=O)[C@H](CO)NC(=O)CNC(=O)CCOCCOCCOCCOCc1cn(CCCNC(=O)CCC2=[N+]3C(=Cc4c(C)cc(C)n4[B-]3(F)F)C=C2)nn1)C(C)C)[C@@H](C)CC)C(=O)N[C@@H](Cc1ccc(O)cc1)C(=O)N[C@H]1CSSC[C@@H](C(=O)N[C@@H](CCC(N)=O)C(=O)N[C@@H](CCCNC(=N)N)C(=O)N[C@@H](CCSC)C(=O)O)NC(=O)[C@H](CCCCN)NC(=O)CNC(=O)[C@H]([C@@H](C)O)NC(=O)[C@H](CCCNC(=N)N)NC(=O)[C@H](CCCNC(=N)N)NC(=O)[C@H](CC(N)=O)NC1=O`, the Kd was 0.034 ± 0.005 µM (lptE/lptD (Escherichia coli, UniProt P0ADC1+P31554); binding, fluorescence polarization; pH 8.0, 20 °C).
The Kd of `CCCCCCCCCCCCCCCC(=O)NCCCC[C@H](NC(=O)[C@H](CCCNC(=N)N)NC(=O)[C@H](Cc1ccc(O)cc1)NC(=O)[C@H](CC(C)C)NC(=O)[C@H](CCCNC(=N)N)NC(=O)CNS(=O)(=O)c1ccc(N)cc1)C(N)=O` is reported as roughly 0.096 µM (ompA, beta-barrel domain (Escherichia coli, UniProt P0A910); binding, surface plasmon resonance; β-barrel domain).
